Measured values gathered from unrelated publications.
Protocols differ between the studies behind these lines. Numbers after ± are the reported error.
HDAC6 ZnF-UBD domain: Protein deacetylase HDAC6, ZnF-UBD domain (HDAC6, Homo sapiens, UniProt Q9UBN7)
Sequence of UniProt Q9UBN7 (whole entry, looked up): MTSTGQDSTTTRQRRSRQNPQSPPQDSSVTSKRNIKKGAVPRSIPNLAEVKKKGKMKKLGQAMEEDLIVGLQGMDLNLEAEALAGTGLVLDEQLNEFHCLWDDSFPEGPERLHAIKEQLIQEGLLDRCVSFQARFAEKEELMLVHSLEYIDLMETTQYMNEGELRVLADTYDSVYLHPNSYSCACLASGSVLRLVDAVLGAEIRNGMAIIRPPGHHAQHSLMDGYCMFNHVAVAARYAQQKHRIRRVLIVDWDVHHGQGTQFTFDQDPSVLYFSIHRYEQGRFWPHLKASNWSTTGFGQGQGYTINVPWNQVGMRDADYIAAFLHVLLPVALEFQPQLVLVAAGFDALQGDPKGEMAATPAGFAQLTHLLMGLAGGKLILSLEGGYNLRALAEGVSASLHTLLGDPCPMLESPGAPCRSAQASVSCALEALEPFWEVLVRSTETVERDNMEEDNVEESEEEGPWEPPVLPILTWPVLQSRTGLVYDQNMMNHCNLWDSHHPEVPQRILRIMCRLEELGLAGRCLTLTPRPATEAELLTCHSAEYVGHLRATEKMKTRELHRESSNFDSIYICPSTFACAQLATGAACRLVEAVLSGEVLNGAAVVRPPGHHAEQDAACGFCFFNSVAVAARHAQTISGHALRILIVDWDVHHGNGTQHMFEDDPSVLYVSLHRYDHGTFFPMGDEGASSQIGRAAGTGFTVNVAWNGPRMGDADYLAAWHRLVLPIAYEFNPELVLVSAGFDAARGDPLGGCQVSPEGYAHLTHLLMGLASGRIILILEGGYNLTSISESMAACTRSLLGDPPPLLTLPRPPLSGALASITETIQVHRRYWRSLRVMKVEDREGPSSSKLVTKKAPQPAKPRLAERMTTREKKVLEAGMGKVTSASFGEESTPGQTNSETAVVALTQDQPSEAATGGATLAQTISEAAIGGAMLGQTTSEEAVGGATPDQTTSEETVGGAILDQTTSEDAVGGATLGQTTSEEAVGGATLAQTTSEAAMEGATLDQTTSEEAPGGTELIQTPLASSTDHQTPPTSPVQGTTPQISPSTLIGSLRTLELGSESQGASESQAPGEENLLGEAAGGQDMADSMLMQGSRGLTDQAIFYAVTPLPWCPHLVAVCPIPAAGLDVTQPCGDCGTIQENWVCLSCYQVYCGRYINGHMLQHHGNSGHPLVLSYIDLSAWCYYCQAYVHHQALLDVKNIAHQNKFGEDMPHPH

Cc1sc2ncn(CC(=O)O)c(=O)c2c1C
Kd (HDAC6 ZnF-UBD domain): 188 µM

CC(C)c1cc(Oc2c(Cl)cc(-n3nc(C#N)c(=O)[nH]c3=O)cc2Cl)n[nH]c1=O
IC50 (LX-2 hepatic stellate cells; collagen production, ELISA, measured: Col1a1; 48 h, serum-free, with: 2.5 ng/mL TGF-β1): > 40 µM

Cc1nc2ccc(NC(=O)CCNC(=O)CCCc3ccc(CC(C(=O)O)C(=O)O)cc3)cc2s1
IC50 (HEK293T; lactate production; 1 h): > 50 µM

CC(=O)c1c(O)c(C)c(O)c2c1OC1=CC(=O)C(C(C)=O)C(=O)C12C (single isomer, unassigned; (+))
IC50 (hepatocytes, iPSC-derived, line L1; cell viability; 72 h): 5 µM

Oc1ccccc1-c1n[nH]cc1-c1ccnc2ccccc12
log2 fold change (RIO2 (Candida albicans); kinase binding, MIB/MS competition; Candida albicans lysate; 1 µM; baseline: DMSO): -0.02

Cn1cc(-c2ccc(-c3cncc(Cl)c3N3CCC4(CCNC4=O)CC3)cc2)cn1
log2 fold change (COLO 205; gene expression, microarray, measured: SOD1 mRNA; concentration not given, 2 h; baseline: untreated cells): -2.89

O=C1C[C@@](c2ccc(N3CCOCC3)cc2)(c2ccsc2)NC(=O)C1Sc1ccccc1Cl (some centres unmarked)
IC50 (HEK293T; lactate production; 1 h): 4.6 µM

O=C(CNC(=O)c1cccc2ccccc12)Nc1ccccc1Oc1cccc(O)c1
IC50 (SK-N-BE(2)-C; cell growth, inhibitor): 0.485 µM

Cc1c(C)c2c(c(C)c1O)CCC(C)(COc1ccc(CC3SC(=O)NC3=O)cc1)O2 (centres unmarked)
IC50 (hepatocytes, iPSC-derived, line W3; cell viability, RealTime-Glo MT; 24 h, differentiation day 23): 69 µM

C=CC(=O)N1CCC([C@@H]2CCNc3c(C(N)=O)c(-c4ccc(Oc5ccccc5)cc4)nn32)CC1
IC50 (TMD8 wild-type; calcium flux, FLIPR; 2 h preincubation, with: anti-IgM): 0.0028 µM

Cc1cnc(Nc2ccc(OCCN3CCCC3)cc2)nc1Nc1cccc(S(=O)(=O)NC(C)(C)C)c1
IC50 (HEL 92.1.7 JAK2 V617F; cell growth, CCK-8): 0.87 µM

CCCCN1C[C@H](O)[C@@H](O)[C@@H](O)[C@H]1CO
IC50 (sample D patient fibroblasts; Gb3 level lowering, LC-MS/MS, measured: Gb3 d18:1/16:0; 216 h): 8.1 µM

CC1(C)CCC(CN2CCN(c3ccc(C(=O)NS(=O)(=O)c4ccc(NCC5CCOCC5)c([N+](=O)[O-])c4)c(Oc4cnc5[nH]ccc5c4)c3)CC2)=C(c2ccc(Cl)cc2)C1
IC50 (CD19+ B cells from AML patients; cell viability, high-throughput flow cytometry): 0.000847 µM

O=C(O)COCC(=O)O
IC50 (hepatocytes, iPSC-derived, line L1; cell viability, RealTime-Glo MT; 72 h, differentiation day 23): 5360 µM

Cc1cc(N2CCc3c(c(C)nn3CC34CCC(NC(=O)[C@@H]5COCCN5)(CC3)CC4)C2)c2cnn(C)c2n1
IC50 (human PBMC; qRT-PCR, measured: IFI27 mRNA; with: ssRNA): 0.0004 µM

O=C(Nc1c(Cl)cncc1Cl)c1ccc(OC(F)F)c(OCC2CC2)c1
IC50 (PBMC; cytokine release, MSD, measured: IL-4; 24 h, with: anti-CD3ε/anti-CD28): 0.065 µM

NC(=O)c1cnc2[nH]ccc2c1N[C@@H]1[C@@H]2CC3C[C@H]1C[C@@](O)(C3)C2
percent change (CD8+ memory T cells, flow cytometry; Japanese humans, peripheral blood; 20 mg single dose; baseline: baseline): -0.3%

COc1ccc(Oc2ccccc2NC(=O)CNC(=O)c2cccc3ccccc23)cc1
IC50 (SK-N-BE(2)-C; cell growth, inhibitor): 0.234 µM

CC(=O)[C@]1(O)Cc2c(O)c3c(c(O)c2[C@@H](O[C@H]2C[C@H](N)[C@H](O)[C@H](C)O2)C1)C(=O)c1ccccc1C3=O
IC50 (primary human intestinal proliferative cells; EdU incorporation; 48 h): 0.0479 µM

C=CC(=O)N1CCC[C@@H](c2ccc(C(N)=O)c3[nH]ccc23)C1
IC50 (TMD8 wild-type; calcium flux, FLIPR; 4 h preincubation, with: anti-IgM): > 1 µM

O=C(Nc1ccc2c(c1)B(O)OC2)Nc1ccc(F)c(C(F)(F)F)c1
IC50 (HFF; cell growth): > 100 µM

OC(CCN1CCCCC1)(c1ccccc1)C1CC2C=CC1C2 (centres unmarked)
EEG Beta1-power Pz-O2 (resting-state EEG; healthy elderly humans; oral, 4 mg, eyes open, LS mean): 3.6 µV²

CCN1[C@@H](C(=O)NC23CCC(C(=O)O)(CC2)CC3)[C@H](c2cccc(Cl)c2F)[C@]2(C(=O)Nc3cc(Cl)ccc32)C12CCCCC2
IC50 (well-differentiated liposarcoma cells (MDM2 amplified); cell proliferation, alamarBlue; 72 h): 0.104 µM

OCCCN1CC[C@@H]2C[C@H]1c1cc(-c3ccc(C(F)(F)F)cc3)ccc12
IC50 (HEK293T; immunocytochemistry, measured: phospho-eIF2alpha; 2 h): 0.0059 µM

N#CC[C@H](C1CCCC1)n1cc(-c2ncnc3[nH]ccc23)cn1
IC50 (PBMC; cytokine release, MSD, measured: IL-1β; 24 h, with: anti-CD3ε/anti-CD28): 0.062 µM

O=C(O)CCCc1cc2cc(Cl)ccc2n1S(=O)(=O)c1ccc2ncsc2c1
IC50 (LX-2 hepatic stellate cells; collagen production, ELISA, measured: Col1a1; 48 h, serum-free, with: 2.5 ng/mL TGF-β1): 14.3 ± 3.14 µM

CCOc1cc([C@@H](CS(C)(=O)=O)N2C(=O)c3cccc(NC(C)=O)c3C2=O)ccc1OC
IC50 (PBMC; cytokine release, MSD, measured: IL-4; 24 h, with: anti-CD3ε/anti-CD28): 0.47 µM

Cc1cc(NC(=O)Nc2ccc3c(c2)OC(F)(F)O3)cc(C(F)(F)F)n1
IC50 (HFF; cell growth): 42 µM

CC#CC(=O)N1CCC[C@H]1c1nc(-c2ccc(C(=O)Nc3ccccn3)cc2)c2c(N)nccn12
IC50 (TMD8 wild-type; calcium flux, FLIPR; 4 h preincubation, with: anti-IgM): 0.01 µM

c1coc(-c2n[nH]cc2-c2ccnc3ccccc23)c1
log2 fold change (DUN1 (Candida albicans); kinase binding, MIB/MS competition; Candida albicans lysate; 1 µM; baseline: DMSO): -0.15

Cc1cc(NC(=O)CCC(=O)O)nn1C
Kd (HDAC6 ZnF-UBD domain): > 1000 µM

CCO[C@H](COc1ccc(C(F)(F)F)cc1)CSc1ccc(OCC(=O)O)c(C)c1
IC50 (LX-2 hepatic stellate cells; collagen production, ELISA, measured: Col1a1; 48 h, serum-free, with: 2.5 ng/mL TGF-β1): > 50 µM

Cc1nc(Nc2ncc(C(=O)Nc3c(C)cccc3Cl)s2)cc(N2CCN(CCO)CC2)n1
IC50 (Capan-2; cell viability, MTT; mutant KRAS primary): 1.52 µM

Cc1c(C(=O)O)ccc2c3n(nc12)[C@@H]1[C@H](C3)N(CC2CC2)[C@@]2(C(=O)Nc3cc(Cl)ccc32)[C@H]1c1cccc(Cl)c1F
IC50 (4T1 (TP53 mutant); cell proliferation, alamarBlue; 72 h): 5.58 µM

C=CC(=O)Nc1cccc(Oc2nc(Nc3ccc(N4CCN(C)CC4)cc3)nc3ccoc23)c1
IC50 (TMD8 wild-type; calcium flux, FLIPR; 2 h preincubation, with: anti-IgM): > 1 µM

CCN(CCO)CCCC(C)Nc1ccnc2cc(Cl)ccc12 (centres unmarked)
IC50 (human PBMC; IFN-driven gene expression, inhibitor, qRT-PCR, measured: OASL mRNA; two donors, with: ssRNA): 2.5 ± 1 µM

NS(=O)(=O)c1cccc(Cc2c(-c3ccc(F)c(F)c3)[nH]n(-c3nc(C(=O)O)cs3)c2=O)c1
IC50 (HEK293T; lactate production; 1 h): > 50 µM

C[C@H]1CN(C2COC2)CCN1c1ccc(Nc2cc(-c3ccnc(N4CCn5c(cc6c5CC(C)(C)C6)C4=O)c3CO)cn(C)c2=O)nc1
IC50 (TMD8 wild-type; calcium flux, FLIPR; 1 h preincubation, with: anti-IgM): 0.015 µM
